Assay results pooled from the literature.
Each line is one published result; not all experiments were run side by side. ± marks the error that the study gave.
UniProt Q7TMS5, sequence (whole entry, looked up): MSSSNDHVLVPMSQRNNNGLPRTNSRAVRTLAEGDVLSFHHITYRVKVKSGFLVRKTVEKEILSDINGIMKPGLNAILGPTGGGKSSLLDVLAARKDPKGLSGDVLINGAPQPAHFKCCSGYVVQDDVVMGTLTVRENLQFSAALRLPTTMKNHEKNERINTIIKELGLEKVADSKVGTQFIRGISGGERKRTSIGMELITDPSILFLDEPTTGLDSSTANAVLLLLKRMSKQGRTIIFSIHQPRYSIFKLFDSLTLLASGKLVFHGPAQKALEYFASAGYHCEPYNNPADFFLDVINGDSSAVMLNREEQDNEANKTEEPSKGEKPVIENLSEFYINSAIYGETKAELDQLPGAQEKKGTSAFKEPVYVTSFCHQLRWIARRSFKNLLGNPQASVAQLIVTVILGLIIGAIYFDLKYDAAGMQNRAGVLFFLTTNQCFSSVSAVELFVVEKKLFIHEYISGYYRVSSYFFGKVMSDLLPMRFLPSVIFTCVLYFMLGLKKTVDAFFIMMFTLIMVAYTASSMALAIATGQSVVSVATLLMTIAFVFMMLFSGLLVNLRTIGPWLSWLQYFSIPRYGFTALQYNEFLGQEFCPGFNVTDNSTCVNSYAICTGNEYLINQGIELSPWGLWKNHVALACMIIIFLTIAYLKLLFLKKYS
UniProt P11509, sequence (whole entry, looked up): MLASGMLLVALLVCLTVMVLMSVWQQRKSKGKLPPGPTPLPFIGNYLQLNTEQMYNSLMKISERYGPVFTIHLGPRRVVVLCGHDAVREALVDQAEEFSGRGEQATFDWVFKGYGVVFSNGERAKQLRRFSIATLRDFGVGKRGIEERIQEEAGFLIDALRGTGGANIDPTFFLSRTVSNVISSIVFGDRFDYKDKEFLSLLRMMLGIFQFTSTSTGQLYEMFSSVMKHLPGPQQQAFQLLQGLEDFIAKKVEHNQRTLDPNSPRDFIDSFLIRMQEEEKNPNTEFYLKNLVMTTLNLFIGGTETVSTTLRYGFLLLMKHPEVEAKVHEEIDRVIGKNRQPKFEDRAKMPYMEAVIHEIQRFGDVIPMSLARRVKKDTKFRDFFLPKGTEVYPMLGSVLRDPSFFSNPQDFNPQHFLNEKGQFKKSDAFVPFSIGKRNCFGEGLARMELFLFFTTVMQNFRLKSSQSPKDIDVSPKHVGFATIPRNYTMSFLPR
UniProt P10632, sequence (whole entry, looked up): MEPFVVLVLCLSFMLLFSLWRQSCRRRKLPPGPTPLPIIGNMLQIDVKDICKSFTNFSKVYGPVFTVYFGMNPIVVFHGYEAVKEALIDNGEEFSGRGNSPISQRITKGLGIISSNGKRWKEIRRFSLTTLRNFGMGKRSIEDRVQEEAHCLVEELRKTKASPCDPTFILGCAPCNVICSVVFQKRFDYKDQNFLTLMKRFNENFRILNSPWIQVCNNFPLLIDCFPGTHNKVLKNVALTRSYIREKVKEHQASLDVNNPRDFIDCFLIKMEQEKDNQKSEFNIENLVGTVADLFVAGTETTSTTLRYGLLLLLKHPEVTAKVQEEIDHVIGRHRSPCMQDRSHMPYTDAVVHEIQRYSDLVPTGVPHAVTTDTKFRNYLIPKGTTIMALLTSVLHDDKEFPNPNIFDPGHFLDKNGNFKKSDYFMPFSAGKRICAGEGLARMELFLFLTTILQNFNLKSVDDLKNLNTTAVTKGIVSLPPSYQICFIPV
UniProt P08682, sequence (whole entry, looked up): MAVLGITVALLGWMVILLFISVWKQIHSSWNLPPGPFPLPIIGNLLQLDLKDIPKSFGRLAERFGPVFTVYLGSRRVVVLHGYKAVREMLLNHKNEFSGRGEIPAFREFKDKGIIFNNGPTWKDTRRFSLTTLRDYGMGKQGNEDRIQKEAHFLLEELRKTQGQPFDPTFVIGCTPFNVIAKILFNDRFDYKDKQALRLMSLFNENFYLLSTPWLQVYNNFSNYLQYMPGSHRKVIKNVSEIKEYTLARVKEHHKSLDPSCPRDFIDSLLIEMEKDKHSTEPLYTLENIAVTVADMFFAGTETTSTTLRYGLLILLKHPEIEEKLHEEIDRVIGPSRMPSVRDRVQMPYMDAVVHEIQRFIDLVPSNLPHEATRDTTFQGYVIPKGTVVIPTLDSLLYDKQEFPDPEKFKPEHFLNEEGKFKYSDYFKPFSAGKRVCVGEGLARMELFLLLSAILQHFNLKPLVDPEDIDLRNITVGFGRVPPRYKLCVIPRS

COc1cccc(-c2ccc(NC(=O)C3=C(C(=O)O)CCC3)c(F)c2)c1
AUC(0-t) (human male, plasma; oral, 30 mg once daily, day 13, geometric mean): 189 µg·h/mL

Cc1coc2c1CC[C@@H](C)C2
remaining activity (Cytochrome P450 2A6 (CYP2A6, Homo sapiens, UniProt P11509); inactivator; 5 µM, 10 min, pH 7.4, 30 °C, added: NADPH; baseline: without NADPH): 46 ± 14%

O=c1ccc2ccccc2o1
Km (CYP2A6 human; 7-hydroxylation, substrate; human liver microsomes; CYP2A6 added 433 pmol/mg, ratio 1): 1.06 ± 0.41 µM

Cc1ccc(Nc2nccc(N(C)c3ccc4c(C)n(C)nc4c3)n2)cc1S(N)(=O)=O
Papp A-B (Broad substrate specificity ATP-binding cassette transporter ABCG2 (Mus musculus, UniProt Q7TMS5); bidirectional transport; MDCK-Bcrp1 (murine Bcrp1); 5 µM, 240 min, added: canertinib): 2.33 ± 0.1 ×10⁻⁶ cm/s

CC[C@H](C)[C@H](NC(=O)[C@H](CCC(=O)O)NC(=O)[C@H](CO)NC(=O)[C@@H](NC(=O)[C@@H](N)CO)C(C)C)C(=O)N[C@@H](CCC(N)=O)C(=O)N[C@@H](CC(C)C)C(=O)N[C@@H](CCSC)C(=O)N[C@@H](Cc1cnc[nH]1)C(=O)N[C@@H](CC(N)=O)C(=O)N[C@@H](CC(C)C)C(=O)NCC(=O)N[C@@H](CCCCN)C(=O)N[C@@H](Cc1cnc[nH]1)C(=O)N[C@@H](CC(C)C)C(=O)N[C@@H](CC(N)=O)C(=O)N[C@@H](CO)C(=O)N[C@@H](CCSC)C(=O)N[C@@H](CCC(=O)O)C(=O)N[C@@H](CCCN=C(N)N)C(=O)N[C@H](C(=O)N[C@@H](CCC(=O)O)C(=O)N[C@@H](Cc1c[nH]c2ccccc12)C(=O)N[C@@H](CC(C)C)C(=O)N[C@@H](CCCN=C(N)N)C(=O)N[C@@H](CCCCN)C(=O)N[C@@H](CCCCN)C(=O)N[C@@H](CC(C)C)C(=O)N[C@@H](CCC(N)=O)C(=O)N[C@@H](CC(=O)O)C(=O)N[C@H](C(=O)N[C@@H](Cc1cnc[nH]1)C(=O)N[C@@H](CC(N)=O)C(=O)N[C@@H](Cc1ccccc1)C(=O)O)C(C)C)C(C)C
remaining intact compound (Chymotrypsinogen A, activated (chymotrypsin) (Bos taurus, UniProt P00766); substrate, HPLC-UV; 30 min, pH 6.5, 37 °C, without trypsin inhibitor): 0%

Cc1cc(O)c(=O)c(O)cc1C(=O)N1CCC2(CC1)C1CC3CC(C1)CC2C3
selectivity index (herpes simplex virus 1; viral replication; Vero; baseline: CC50 over EC50): 80

CC1=C2C[C@H]3[C@@H](CC[C@@H]4C[C@H](NS(C)(=O)=O)CC[C@@]43C)[C@@H]2CC[C@@]2(C1)O[C@@H]1C[C@H](C)CN[C@H]1[C@H]2C
AUC(0-24) (patients, plasma; oral, 210 mg daily, day 22, cycle 1): 11.3 µg·h/mL

COc1ccc(/C=C2/C(=O)c3ccccc3C2N2CCOCC2)cc1 (stereo not shown)
developmental toxicity (Danio rerio embryo; concentration not given, 24 h): toxic

CC1=N[C@]2(C(=O)CO)[C@@H](C[C@H]3[C@@H]4C[C@@H](O)C5=CC(=O)C=C[C@]5(C)[C@H]4[C@@H](O)C[C@@]32C)O1
IC50 (Cytochrome P450 2C8 (CYP2C8, Homo sapiens, UniProt P10632); enzyme activity, inhibitor; human, liver microsomes; with preincubation): > 50000 nM

Cc1cc(O)c(=O)c(O)cc1C(=O)Nc1ccc2ccc3cccc4ccc1c2c34
selectivity index (herpes simplex virus 1; viral replication; Vero; baseline: CC50 over EC50): 304

c1n[nH]c2c1CCCC2
Ki (CYP2E1 (Oryctolagus cuniculus, UniProt P08682); inhibitor; pH 7.4, 37 °C, cooperative site, added: 4-nitrophenol): 2700 nM

CCCC[C@H](NC(C)=O)C(=O)N[C@H]1CCC(=O)NC[C@@H](C(=O)N[C@@H](Cc2c[nH]c3ccccc23)C(N)=O)NC(=O)[C@H](CCCNC(=N)N)NC(=O)[C@@H](Cc2ccccc2)NC(=O)[C@H](Cc2c[nH]cn2)NC1=O
Cmax, geometric mean (healthy volunteers, both sexes, plasma; subcutaneous, 1.0 mg once daily, day 1): 21.7 ng/mL

Cn1c(-c2ccc(C(N)=O)cc2F)nnc1C(C)(C)Oc1c(F)cc(Cl)cc1F
half-life median (healthy young Japanese subjects, plasma; oral, 20 mg once daily, day 18, 14 days dosing): 29.8 h
